Measurements gathered from unrelated publications.
Lines come from different studies, so protocols differ.
Target: STE20-like serine/threonine-protein kinase (SLK, Homo sapiens, UniProt Q9H2G2)

Structure (SMILES) | test | test system | setting | scale | measurement | result
C=CC(=O)Nc1cccc(-c2cnc3[nH]cc(C(=O)NC(C)(C)C)c3n2)c1 | kinase activity |  | 0.1 µM |  | inhibition | 9%
C=CC(=O)N1CCc2ccc(-n3c(=O)ccc4cnc5ccc(-c6cnn(C)c6)cc5c43)cc21 | KINOMEscan |  | 1 µM | relative to: DMSO control | remaining binding | 100%
Cc1cccc(O[C@H]2CCC[C@@H](C(C)CNCc3ccncc3)C2)c1 (relative stereo) | enzyme activity, inhibitor |  | 10 µM |  | inhibition | -6%
C[C@]1(O)CCCN(c2nc(Nc3ccc(S(=O)(=O)N[C@H]4CC[C@H](CN5CCN(c6ccc(C7CCC(=O)NC7=O)cc6F)CC5)CC4)cc3)ncc2C(F)(F)F)C1 (stereo partly shown) | binding, competition with immobilised ligand |  | 1 µM |  | remaining binding | 1.5%
Nc1ncc(-c2cc(-c3cnn(CC(F)(F)F)c3)ncc2F)nc1C(=O)NC1CNCC(F)C1 (stereo not shown) | enzyme activity |  | 1 µM | relative to: DMSO control | remaining activity | 88.9%
CNC1C[S+]2CC[S+]3CC[S+](C1)[Ru-4]321([N]=C=S)[n]2c3ccc(OC)cc3c3c4c(c5cc(F)c[n+]1c5c32)C(=O)NC4=O (stereo not shown) | KinomeScan |  | 0.1 µM | relative to: untreated | remaining binding | 97%
CN1CC[C@@H](COc2cnc(C#N)cc2-c2ccn3nc(NC(=O)C4CC4)cc3c2)C1 | enzyme activity, inhibitor |  | 1 µM |  | inhibition | 0%
Cc1ccc(C(=O)Nc2ccc(CN3CCN(C)CC3)c(C(F)(F)F)c2)cc1C#Cc1cnc2cccnn12 | target engagement, NanoBRET | human cells |  |  | upper asymptote | 52.4
COc1cc(Nc2nc(C)cc(-c3cnn4nc(OC)ccc34)n2)cc(C(F)(F)F)c1 | binding, competition with immobilised ligand |  | 1 µM |  | remaining binding | 88%
Nc1ncc2c(n1)-c1c([nH]c3ccc(C4=CCOCC4)cc13)CCC2 | binding, competition with immobilised ligand |  | 1 µM |  | remaining binding | 100%
CC(C)=CC1OC(C)(C)C2C=C3C(=O)C(Cl)=CC(O)C3C3C(O)C4OC4C(=O)C132 (stereo not shown) | cell-free assay, competition with immobilised ligand |  | 10 µM |  | remaining binding | 96%
C=CC(=O)N1Cc2nc(-c3cc(-c4cc(Cl)cnc4Cl)c(F)cc3F)n(-c3ccncn3)c2C1 | cell-free assay, inhibitor |  | 1 µM |  | inhibition | 0.1%
C=CC(=O)Nc1cc(-c2nn(C3CCN(CCNC(=O)[C@H](C)CCC45CC6CC(CC(C6)C4)C5)CC3)c3ncnc(N)c23)ccc1Oc1ccccc1 | inhibitor, KiNativ profiling | biochemical | 2 µM |  | inhibition | 23.7%
Cc1cnc2nc1Nc1cccc(c1)COC/C=C/COCc1cc(ccc1OCCN1CCOCC1)N2 | binding, competition with immobilised ligand |  | 0.1 µM |  | remaining binding | 86%
NC(=O)[C@@H](O)C[C@H]1CCc2sc3ncnc(O[C@H]4CC[C@H](N5CCOCC5)CC4)c3c21 | enzyme activity, inhibitor |  | 10 µM |  | inhibition | 4%
CNC(=O)C1CCN(c2cc(C)c(F)cc2NC(=O)c2ccc(-c3cc(O)ccc3C)c(C)c2)CC1 | binding, competition with immobilised ligand |  | 1 µM |  | remaining binding | 100%

Some of these lines once more:
Structure (SMILES) | test | test system | setting | scale | measurement | result
C=CC(=O)Nc1cc(-c2nn(C3CCN(CCNC(=O)[C@H](C)CCC45CC6CC(CC(C6)C4)C5)CC3)c3ncnc(N)c23)ccc1Oc1ccccc1 | inhibitor, KiNativ profiling | biochemical | 2 µM |  | inhibition | 23.7%
CN1CC[C@@H](COc2cnc(C#N)cc2-c2ccn3nc(NC(=O)C4CC4)cc3c2)C1 | enzyme activity, inhibitor |  | 1 µM |  | inhibition | 0%
